Assay results gathered from unrelated publications.
Several values in a cell are separate wells, animals, samples, runs or records. ± marks the error that the study gave.
Sequence of UniProt P51659 (whole entry, looked up): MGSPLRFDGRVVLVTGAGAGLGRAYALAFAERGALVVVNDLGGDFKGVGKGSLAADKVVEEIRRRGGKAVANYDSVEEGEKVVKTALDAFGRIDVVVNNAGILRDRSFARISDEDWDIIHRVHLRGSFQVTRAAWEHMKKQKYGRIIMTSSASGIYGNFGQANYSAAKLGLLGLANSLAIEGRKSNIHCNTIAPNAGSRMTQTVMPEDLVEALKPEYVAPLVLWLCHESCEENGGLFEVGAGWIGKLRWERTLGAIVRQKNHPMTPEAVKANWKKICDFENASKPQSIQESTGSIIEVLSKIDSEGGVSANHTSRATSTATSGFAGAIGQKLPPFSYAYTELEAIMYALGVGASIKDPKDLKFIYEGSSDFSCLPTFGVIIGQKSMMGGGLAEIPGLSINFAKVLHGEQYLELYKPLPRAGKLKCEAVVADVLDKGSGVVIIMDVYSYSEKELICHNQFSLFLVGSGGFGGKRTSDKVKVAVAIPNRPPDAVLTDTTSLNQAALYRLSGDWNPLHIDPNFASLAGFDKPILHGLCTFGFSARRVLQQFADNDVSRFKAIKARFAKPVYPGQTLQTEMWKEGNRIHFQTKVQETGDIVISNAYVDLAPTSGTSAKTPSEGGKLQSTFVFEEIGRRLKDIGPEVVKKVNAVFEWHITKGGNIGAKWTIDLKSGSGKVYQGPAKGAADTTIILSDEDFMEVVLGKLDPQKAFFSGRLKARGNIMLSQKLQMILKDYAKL

| Structure (SMILES) | target or system | assay | test system | conditions | scale | endpoint | value |
| --- | --- | --- | --- | --- | --- | --- | --- |
| CC(=O)N(N(CCCl)S(C)(=O)=O)S(C)(=O)=O |  |  | CD2F1 female mice, L1210 leukemia | ip, 60 days, single dose |  | first toxic death dose | 60 mg/kg |
| N.N.[Cl][Pt][Cl] |  |  | mouse xenograft model | dose not given, day 8, group mean |  | body weight | 20.4 g |
| CO[C@H]1C[C@@H]2CC[C@@H](C)[C@@](O)(O2)C(=O)C(=O)N2CCCC[C@H]2C(=O)O[C@H]([C@H](C)C[C@@H]2CC[C@@H](OC(=O)NCCOCCOCCOCCOCCOCCOCCOCCOCCC(=O)N3CCc4cc(Cn5nc(-c6ccc7oc(N)nc7c6)c6c(N)ncnc65)ccc4C3)[C@H](OC)C2)C[C@@H](O)[C@H](C)/C=C(\C)[C@@H](O)[C@@H](OC)C(=O)[C@H](C)C[C@H](C)/C=C/C=C/C=C/1C |  |  | patients with advanced solid tumours | intravenous, 6 mg weekly, grade 3 or higher |  | anaemia incidence | 16.7% |
| Cc1ncnc2c1ccn2[C@@H]1C[C@H](Oc2cc(C(F)F)c(F)c3c2CNCC3)[C@@H](O)[C@H]1O |  |  | patients | grade ≥3 | baseline: patients | Nausea incidence | 0% |
| CC(C)CC(=O)OC[C@H]1O[C@@](C#N)(c2ccc3c(N)ncnn23)[C@H](O)[C@@H]1O |  |  | mouse plasma | 9 µM |  | fraction bound | 0.837 |
| CCN(CCO)CCCC(C)Nc1ccnc2cc(Cl)ccc12 (stereo not shown) |  |  | newly diagnosed glioblastoma patients | oral, 400 mg/dose, grade 3, added: radiotherapy and temozolomide |  | neutrophil decrease patients | 14% |
| C[C@]1(CO)Cc2ncn(-c3ccc(C#N)c(Cl)c3)c2C(=O)O1 |  |  | human, Chinese | 80 mg single dose |  | subjects with drug-related headache | 16.7% |
| Cn1cncc1-c1c(F)cncc1NC(=O)c1c(N)nn2cc(F)cnc12 |  |  | human patients | oral, 150 mg twice daily, 4 days per 3 days, 21 days |  | platelet count decreased DLT | 0% |
| Clc1cc(Cl)c(-c2c(Cl)c(Cl)c(Cl)c(Cl)c2Cl)cc1Cl |  |  | PDMS-water partitioning | PCB compilation | baseline: maximum over minimum K | literature range factor | 2 |
| COc1ncccc1-c1cnn2ccc(N3CCN(C(=O)OC(C)C)CC3)nc12 |  |  | rat, rotarod test, plasma | 10 mg/kg, 180 min |  | drug concentration | 860 nM |
| COc1cccc(Oc2ccccc2NC(=O)CNC(=O)c2cccc3ccccc23)c1 |  |  | esterase-deficient SCID mice, male, blood | oral, 40 mg/kg/day, 14 days, toxicity study | baseline: white cells | eosinophils | 1.6% and 0% |
| C[C@@H](NC(=O)N1C(=O)[C@H](Cc2ccnc(N)c2)[C@H]1C(=O)O)C1CCCCC1 |  |  | healthy Chinese adult volunteers | continuous intravenous infusion, dose not given, 5.0 days, CTCAE 5.0, all doses |  | infusion site pain | 0% |
| CCOc1cc(Oc2ccc(C(F)(F)F)cc2Cl)ccc1[N+](=O)[O-] |  |  | rat male | 0.8125 mg/kg, 8 days |  | body weight gain | 66.2% |
| NC(=O)[C@H]1CCN(c2ncnc(N)c2F)C[C@@H]1N1CCC[C@@H](Nc2cc(Cl)cc(C(F)(F)F)c2)C1=O |  |  | B-cell malignancy patients | oral, 20.5 mg twice daily, dose |  | grade ≥3 leukopenia | 33% |
| C[C@H]1CN(c2n[nH]c3nc(N[C@H]4CC[C@H](NS(=O)(=O)CCC(F)(F)F)CC4)ncc23)CCO1 | HSD17B4 (Homo sapiens, UniProt P51659) | inhibitor, Kinobeads competition profiling |  | 0.8 µM | baseline: vehicle | relative abundance | 1.06 |
| COc1cc2c(Oc3ccc4[nH]c(C)cc4c3F)ccnc2cc1OCC1(N)CC1 |  | measured: grade 3 weight loss | paediatric high-risk refractory sarcoma | whole group |  | incidence of adverse event | 0% |
| COc1cc2c(cc1OC)CN(CCc1ccc(NC(=O)c3cccc4c(=O)c5cccc(OC)c5[nH]c34)cc1)CC2 |  |  | CD-1 mouse, male, plasma | intraperitoneal, 30 mg/kg |  | elimination rate constant | 1.03e-05 s⁻¹ |
| CCCCCCCCCCCCCCCC(=O)N[C@@H](CCC(=O)NCCCC[C@H](NC(=O)[C@H](CC(=O)O)NC(=O)[C@H](CO)NC(=O)[C@@H](NC(=O)[C@H](Cc1ccccc1)NC(=O)[C@@H](NC(=O)CNC(=O)[C@H](CCC(N)=O)NC(=O)[C@H](CO)NC(=O)[C@@H](N)Cc1c[nH]cn1)[C@@H](C)O)[C@@H](C)O)C(=O)N[C@@H](CO)C(=O)N[C@@H](CCC(=O)O)C(=O)N[C@@H](Cc1ccc(O)cc1)C(=O)N[C@@H](CC(C)C)C(=O)N[C@@H](CC(=O)O)C(=O)N[C@@H](CO)C(=O)N[C@@H](CCC(=O)O)C(=O)N[C@@H](CCCNC(=N)N)C(=O)N[C@@H](C)C(=O)N[C@@H](CCCNC(=N)N)C(=O)N[C@@H](CC(=O)O)C(=O)N[C@@H](Cc1ccccc1)C(=O)N[C@H](C(=O)N[C@@H](C)C(=O)N[C@@H](Cc1c[nH]c2ccccc12)C(=O)N[C@@H](CC(C)C)C(=O)N[C@@H](CCC(=O)O)C(=O)N[C@@H](C)C(=O)NCC(=O)NCC(=O)O)C(C)C)C(=O)O |  | measured: Dyspepsia | humans all renal groups | subcutaneous, 100 µg single dose |  | treatment-related adverse events | 2.7% |
| C/C=C1/CN2CC[C@@]34c5cc(O)ccc5N(C)[C@]35OC[C@@]4(C(=O)OC)[C@H]1C[C@H]25 |  |  | rat liver microsomes, male | 1 µM, pH 7.4 |  | CLint | 51.4 ± 3.4 µL/min/mg |
| COc1cccc(-c2ccnc(Nc3ccc(N4CCN(C)CC4)c(C(F)(F)F)c3)n2)c1 |  |  | Danio rerio embryos | 5 µM, 5 d |  | toxicity | 74 ± 26% |

| Structure (SMILES) | target or system | assay | test system | conditions | scale | endpoint | value |
| --- | --- | --- | --- | --- | --- | --- | --- |
| CN1CC[C@@H](c2c(O)cc(O)c3c(=O)cc(-c4ccc(C(F)(F)F)cc4Cl)oc23)[C@@H]1CO |  | measured: Anemia | relapsed B-cell malignancies or AML | oral, 50 mg, grade 3-4, continuous dosing |  | patients with adverse event | 25% |
| [131I-].[Na+] |  |  | hyperthyroidism patients | 185 MBq, long-term follow-up |  | non-thyroid malignancy incidence | 0.8% |
| Clc1cc(Cl)cc(-c2cc(Cl)ccc2Cl)c1 |  |  | PDMS-water partitioning | PCB compilation | baseline: maximum over minimum K | literature range factor | 1.2 |
| O=[N+]([O-])c1cc2c3c(ccc2c2ccccc12)[C@H](O)[C@@H](O)C=C3 |  | measured: adenocarcinoma mammary tumours | female Sprague-Dawley rats | intramammary, 12.3 µmol per rat, up to 32 weeks |  | tumours per rat | 0.25 ± 0.53 |
| O=S(=O)(Nc1ccccc1)c1ccc(NC(=S)Nc2ccccc2)cc1 |  | measured: ALT | male mouse, blood | oral, 80 mg/kg daily, 14 days |  | serum enzyme activity | 115 U/L |
| c1ccc2c(c1)-c1cccc3c1c-2cc1ccccc13 |  |  | fresh water | 12 (unit not given), 20 °C, S30-1 sampler, 30 µm |  | log K(PDMS-water) | 5.18 ± 0.05 |
| O=C(Nc1ccccc1)C1CCN(C(=O)Oc2cccnc2)CC1 |  | adverse event reporting | healthy women | oral, 100 mg, 9 days |  | subjects with decreased appetite | 15.4% |
| CN(C)CCCN1c2ccccc2Sc2ccccc21 | Plasmodium falciparum |  | Dd2 |  |  | IC50 | 1580 nM |
| CC[C@H](C)[C@H](NC(=O)[C@H](Cc1ccccc1)NC(=O)[C@H](CCC(=O)O)NC(=O)[C@H](CCCNC(=N)N)NC(=O)[C@H](C)NC(=O)[C@H](C)NC(=O)[C@H](CCC(N)=O)NC(=O)[C@H](CCC(=O)O)NC(=O)[C@H](CCC(=O)O)NC(=O)[C@H](CC(C)C)NC(=O)[C@H](Cc1ccc(O)cc1)NC(=O)[C@H](CO)NC(=O)[C@H](CO)NC(=O)[C@@H](NC(=O)[C@H](CC(=O)O)NC(=O)[C@H](CO)NC(=O)[C@@H](NC(=O)[C@H](Cc1ccccc1)NC(=O)[C@@H](NC(=O)CNC(=O)[C@H](CCC(=O)O)NC(=O)[C@H](C)NC(=O)CCc1cnc[nH]1)[C@@H](C)O)[C@@H](C)O)C(C)C)C(=O)N[C@@H](C)C(=O)N[C@@H](Cc1c[nH]c2ccccc12)C(=O)N[C@@H](CC(C)C)C(=O)N[C@H](C(=O)N[C@@H](CCCNC(=N)N)C(=O)NCC(=O)N[C@@H](CCCNC(=N)N)C(=O)N[C@@H](CCCCNC(=O)COCCOCCNC(=O)COCCOCCNC(=O)CC[C@H](NC(=O)CCCCCCCCCCCCCCCCC(=O)O)C(=O)O)C(=O)NCC(=O)NCC(=O)N[C@@H](CO)C(=O)N[C@@H](CCCCNC(=O)[C@H](CCCCNc1c(NCCCCCN(O)C(=O)CCC(=O)NCCCCCN(O)C(=O)CCC(=O)NCCCCCN(O)C(C)=O)c(=O)c1=O)Nc1c(NCCCCCN(O)C(=O)CCC(=O)NCCCCCN(O)C(=O)CCC(=O)NCCCCCN(O)C(C)=O)c(=O)c1=O)C(=O)O)C(C)C [zirconium-89 labelled] |  | ex vivo gamma counting | Sprague-Dawley rat, male, duodenum | intravenous, 1 nmol, 24 h |  | tissue uptake | 0.196 %ID/g and 0.188 %ID/g and 0.193 %ID/g and 0.218 %ID/g and 0.192 %ID/g |
| COc1cccc2c1CCCC2CCCN1CCN(C2CCCCC2)CC1 (stereo not shown) |  |  | CD-1 mouse, male, plasma | intraperitoneal, 1 mg/kg |  | Tmax | 30 min |
| CC(C)[C@H](N)C(=O)N1CCC[C@H]1B(O)O |  | measured: body weight, serum chemistry, blood counts | NSG mice bearing MV4-11 | intraperitoneal, 20 µg, day 23 |  | tolerability | no effect |
| O=C1Nc2cc3[nH]nc(-c4ccncc4)c3cc2CN1Cc1ccccc1 |  | CTCAE v4.03 | advanced solid tumour patients | intravenous, 4.8 mg/kg, schedules 1/2 |  | patients with diarrhoea | 0% |
| Clc1ccc(-c2ccc(Cl)c(Cl)c2)cc1Cl |  |  | polyethylene-water partitioning | PCB compilation | baseline: maximum over minimum K | literature range factor | 2 |
| CCc1ccc(CC/C=C/c2ccc3c(c2)C(=O)CC3)cc1 |  |  | Sprague-Dawley rat, female, serum | oral, 30 mg/kg/day, 14 days |  | chloride | 106 mM |
| CC1(C)[C@H](C=C(Cl)Cl)[C@H]1C(=O)OCc1cccc(Oc2ccccc2)c1 |  | measured: CYP2B6 | human, age 1 year, recombinant human CYP2B6 | 0.1 µM |  | enzyme contribution to clearance | 0.05% |
| COc1ccc2nc3cc(Cl)ccc3c(Nc3cc(CN4CCCC4)c(O)c(CN4CCCC4)c3)c2n1 |  |  | mouse, blood | intraperitoneal, 14 mg/kg |  | haematocrit | 40% |
| Clc1ccc(Cl)c(-c2cc(Cl)ccc2Cl)c1 |  |  | Sprague Dawley rat, spleen | intraperitoneal, 100 mg/kg |  | relative organ weight | 0.0027 g/g body weight |
| Clc1ccc(-c2ccccc2)cc1 |  |  | Sprague-Dawley rats, female, serum | inhalation, 23 µg/rat, 4 h after exposure |  | chloride | 86 ± 10 mM |
| CC(C)C[C@@H]1NC(=O)[C@H](CC(N)=O)NC(=O)[C@H](CCCNC(=N)N)NC(=O)[C@H]([C@@H](C)O)NC(=O)[C@@H]2CSSC[C@@H]3NC(=O)[C@H]([C@@H](C)O)NC(=O)CNC(=O)CNC(=O)[C@H](C(C)C)NC(=O)[C@@H]4CSSC[C@H](NC(=O)[C@H]([C@@H](C)O)NC(=O)[C@H](CSSC[C@H](NC(=O)[C@H](C(C)C)NC(=O)[C@@H]5CCCN5C(=O)[C@H](CC(C)C)NC1=O)C(=O)NCC(=O)N[C@@H](CCC(=O)O)C(=O)N[C@@H]([C@@H](C)O)C(=O)N4)NC(=O)CNC(=O)[C@@H]1CCCN1C(=O)[C@H]([C@@H](C)O)NC(=O)[C@H](CC(N)=O)NC3=O)C(=O)N[C@@H](CO)C(=O)N[C@@H](Cc1c[nH]c3ccccc13)C(=O)N1CCC[C@H]1C(=O)N[C@@H](C(C)C)C(=O)N2 |  | HPLC | ammonium bicarbonate | 180 µM, 14 days, pH 9.0, 25 °C, deamidation stability |  | remaining peptide | 98.1 ± 1.4% |
| COc1ccc(-c2c(-c3ccc(C#N)c(F)c3)nc(N3CCC(N)CC3)n(C)c2=O)cc1F |  | measured: bone pain | human patients | oral, 60 mg, dose expansion |  | serious adverse event incidence | 0% |

Repeated from above:
| Structure (SMILES) | target or system | assay | test system | conditions | scale | endpoint | value |
| --- | --- | --- | --- | --- | --- | --- | --- |
| c1ccc2c(c1)-c1cccc3c1c-2cc1ccccc13 |  |  | fresh water | 12 (unit not given), 20 °C, S30-1 sampler, 30 µm |  | log K(PDMS-water) | 5.18 ± 0.05 |
| C[C@@H](NC(=O)N1C(=O)[C@H](Cc2ccnc(N)c2)[C@H]1C(=O)O)C1CCCCC1 |  |  | healthy Chinese adult volunteers | continuous intravenous infusion, dose not given, 5.0 days, CTCAE 5.0, all doses |  | infusion site pain | 0% |
